Assay results collected from several papers.
Protocols differ between the studies behind these lines.
Organism: Staphylococcus aureus

Structure (SMILES) | test | system | setting | MIC
CC(C)[C@H](NC(=O)[C@H](CCCCN)NC(=O)[C@H](CCCNC(=N)N)NC(=O)CNC(=O)[C@H](C)NC(=O)[C@H](CC(N)=O)NC(=O)[C@H](CCCNC(=N)N)NC(=O)[C@@H](NC(=O)[C@H](CCCCN)NC(=O)[C@H](CC(=O)O)NC(=O)[C@@H](NC(=O)[C@@H](NC(=O)[C@H](CCCNC(=N)N)NC(=O)[C@H](CCCNC(=N)N)NC(=O)[C@H](Cc1c[nH]c2ccccc12)NC(=O)[C@H](Cc1c[nH]c2ccccc12)NC(=O)CN)[C@@H](C)O)C(C)C)C(C)C)C(=O)O | bacterial growth | ATCC 25923 | 18 h | > 256 µg/mL
CC(C)C[C@@H]1NC(=O)[C@H](C)NC(=O)[C@H](NC(=O)[C@H](CO)NC(=O)[C@@H](CCCCN)NC(=O)[C@@H](C)NC(=O)[C@@H](N)Cc2ccccc2)[C@H](C(N)=O)OC(=O)[C@H](CC(C)C)NC1=O | – | MSSA ATCC 29213 | TFA salt | 16 to 32 µg/mL
CC[C@H](C)[C@@H]1NC(=O)CNC(=O)[C@H](CCCCN)NC(=O)[C@H](C)NC(=O)[C@H](CCC(=O)O)NC(=O)[C@H](Cc2ccccc2)NC(=O)[C@H](CO)NC(=O)[C@H](CC(C)C)NC(=O)[C@H](C(C)C)NC(=O)[C@H](CC(=O)O)NC(=O)[C@@H](NC(=O)[C@@H](NC(=O)[C@@H](N)C(C)C)[C@@H](C)O)CSSC[C@@H]2NC(=O)[C@H](CO)NC(=O)CNC(=O)CNC(=O)[C@H](CCCCN)NC(=O)[C@H](CCCCN)NC(=O)[C@H](CCCNC(=N)N)NC(=O)[C@H](CC(C)C)NC(=O)[C@H](C)NC(=O)[C@H]([C@@H](C)CC)NC(=O)[C@H](C)NC(=O)[C@H](Cc3c[nH]cn3)NC(=O)[C@H](CC(C)C)NC(=O)[C@H](C)NC(=O)[C@H](CSSC[C@@H](C(=O)N[C@H](C(=O)N[C@@H](C)C(=O)N[C@@H](CCCNC(=N)N)C(=O)N[C@@H](CC(N)=O)C(=O)O)C(C)C)NC(=O)[C@H](C(C)C)NC(=O)CNC(=O)[C@H](CC(N)=O)NC(=O)[C@H](CCC(N)=O)NC2=O)NC(=O)[C@H](C)NC(=O)[C@H](CO)NC(=O)[C@H](Cc2c[nH]cn2)NC(=O)[C@H](CC(N)=O)NC(=O)[C@H](C(C)C)NC(=O)[C@H](C)NC1=O | broth microdilution | KCTC 1621 | 16 h, 37 °C | > 100 µM
CCCCCCCCCCCCCCC(=O)O.O=C1CCCC2C3CCCN4CCCC(CN12)C34 (centres unmarked) | bacterial growth, broth dilution | ATCC 29213 | – | inactive
CC(C)CCCCCCCCC/C=C/C(=O)N[C@@H](CC(=O)O)C(=O)N[C@H]1CNC(=O)[C@@H]2CCCN2C(=O)[C@H](C)NC(=O)[C@@H]([C@@H](C)O)NC(=O)CNC(=O)[C@H](CC(=O)O)NC(=O)CNC(=O)[C@H](CC(=O)O)NC(=O)CNC(=O)[C@H]2CCCCN2C1=O | – | MRSA USA300 | together with: Ca2+ 1 mM | 64 µg/mL
CC[C@H](C)[C@H](NC(=O)[C@H](CCN)NC(=O)[C@H](Cc1ccccc1)NC(=O)[C@H](Cc1ccccc1)NC(=O)CCCCCOC(=O)c1cn(C2CC2)c2cc(N3CCNCC3)c(F)cc2c1=O)C(=O)N[C@@H](CCN)C(=O)N[C@H](Cc1ccccc1)C(=O)N[C@@H](CC(C)C)C(=O)N[C@@H](CCN)C(=O)N[C@@H](C(=O)N[C@@H](CC(C)C)C(=O)N[C@@H](CO)C(N)=O)C(C)C | – | – | 24 h, 37 °C | 6.25 µM
N=C(N)NCCC[C@@H]1NC(=O)[C@H](CCCNC(=N)N)NC(=O)[C@H](CCCNC(=N)N)NC(=O)[C@H](CCCNC(=N)N)NC(=O)[C@H](Cc2c[nH]c3ccccc23)NC(=O)[C@H](CCCNC(=N)N)NC(=O)[C@H](CCCNC(=N)N)NC(=O)[C@@H](N)CCCn2cc(nn2)C[C@@H](C(N)=O)NC1=O | – | ATCC 25923 | 24 h, 37 °C | 7.8 µg/mL
CC(C)C[C@H](NC(=O)[C@H](C)NC(=O)CNC(=O)[C@@H](NC(=O)[C@@H](NC(=O)[C@H](CCCCN)NC(=O)[C@H](CCCCN)NC(=O)[C@H](CC(C)C)NC(=O)[C@H](CC(C)C)NC(=O)[C@H](CCCCN)NC(=O)[C@H](CC(C)C)NC(=O)[C@H](CC(C)C)NC(=O)[C@@H](N)CCCCN)C(C)C)C(C)C)C(=O)NCC(N)=O | – | SH1000 GFP-expressing, nutrient broth | 20 h, 37 °C | 10 µM
CCN(CC)CCCN1/C(=C/c2cc[n+](C)c3ccccc23)Sc2ccccc21 | microbial growth, broth dilution | ATCC29213 | – | 2 µg/mL
O=C1c2ccccc2NC(c2ccc(O)c(O)c2)N1/N=C/c1ccc(O)c(O)c1 (centres unmarked) | microbial growth, broth dilution | – | drug-resistant strain, clinical isolate | 164 µM
CC(C)=CCc1cc2c(cc1O)OC[C@H]1c3ccc(O)c(CC=C(C)C)c3O[C@@H]21 | – | – | – | 4 µg/mL
O=C(O)CC[C@@H]1NC(=O)[C@H](CCC(=O)O)NC(=O)[C@H](CCC(=O)O)NC(=O)[C@H](Cc2c[nH]c3ccccc23)NC(=O)[C@H](Cc2c[nH]c3ccccc23)NC(=O)[C@H](Cc2c[nH]c3ccccc23)NC(=O)[C@H](CCC(=O)O)NC1=O | broth microdilution | MRSA ATCC 43300 | 37 °C | > 134 µg/mL
CCCCCCCCCCCCCCN1C(=O)/C(=N\NC(=N)N)c2cc(C)ccc21 | broth microdilution | BAA41 MRSA | 18 h, 37 °C | > 192 µg/mL
COc1cccc(C2Nc3ccccc3C3=[O+][Cu-2]4([Cl])[O]c5c(cccc5OC)C=[N+]4N32)c1O (centres unmarked) | broth microdilution | MRSA clinical isolate SA 3202 | 24 h, 37 °C | 16 µg/mL
CN1C(=O)[C@@H]2NC(=O)[C@@H]3NC(=O)[C@@H](c4ccc(O)cc4)NC(=O)[C@H](NC(=O)C(N)c4ccc(O)cc4)Cc4c[nH]c5cc(ccc45)-c4cc3cc(c4O)Oc3ccc(cc3)C[C@H]1C(=O)N[C@@H](C(=O)NCCC[N+](C)(C)C)c1ccc(O)c(c1)Oc1ccc2cc1 (some centres unmarked) | – | ATCC 33591 MRSA, Mueller-Hinton broth | – | > 128 µg/mL
NC[C@@H]1O[C@H](O[C@H]2[C@@H](O)[C@H](O[C@@H]3[C@@H](O)[C@H](N)C[C@H](N)[C@H]3O[C@H]3O[C@H](CO)[C@@H](CCO)[C@H](O)[C@H]3N)O[C@@H]2CO)[C@H](N)[C@@H](O)[C@@H]1O | – | methicillin-resistant, AAC(6') ANT(4',4'') APH(3') | – | 2 µg/mL
CC[C@H](C)[C@H](NC(=O)[C@H](CCCN)NC(=O)[C@H](CC(N)=O)NC(=O)[C@H](CC(C)C)NC(=O)[C@H](Cc1ccccc1)NC(=O)[C@H](CCCN)NC(=O)[C@H](CCCNC(=N)N)NC(=O)[C@H](CC(C)C)NC(=O)[C@H](CC(C)C)NC(=O)[C@H](CCCN)NC(=O)[C@H](CCCNC(=N)N)NC(=O)[C@H](CC(C)C)NC(=O)CNC(C)=O)C(=O)N[C@@H](CCCN)C(=O)N[C@@H](CCCNC(=N)N)C(N)=O | broth microdilution | multidrug-resistant | – | 3.12 µM
COc1ccc2c(c1)[O][Au-]13[O]c4ccc5ccc(OC)cc5c4C=[N+]1C1CCCCC1[N+]3=C2.F[P-](F)(F)(F)(F)F (centres unmarked) | bacterial growth, broth microdilution | vancomycin-intermediate | 24 h | > 20 µM
CC(C)C[C@H](NC(=O)[C@H](CC(C)C)NC(=O)[C@H](C)NC(=O)[C@H](NC(=O)[C@H](CO)NC(=O)[C@@H](CCCCN)NC(=O)[C@@H](CC(C)C)NC(=O)[C@@H](N)Cc1ccccc1)[C@@H](O)C(N)=O)C(=O)O | – | MSSA ATCC 29213 | TFA salt | > 32 µg/mL
CC[C@H](C)[C@H](N)C1=N[C@H](C(=O)N[C@@H](CC(C)C)C(=O)N[C@H](CCC(=O)O)C(=O)N[C@@H](Cc2ccccc2)C(=O)N[C@H]2CCCCNC(=O)[C@H](CC(N)=O)NC(=O)[C@@H](CC(=O)O)NC(=O)[C@H](Cc3c[nH]cn3)NC(=O)[C@@H](Cc3ccccc3)NC(=O)[C@H]([C@@H](C)CC)NC(=O)[C@@H](CCCN)NC2=O)CS1 | broth microdilution | ATCC 29213, LB medium | 18 h, 37 °C, together with: ZnSO4 0.3 mM | 4 µg/mL
CCCO[C@H]1[C@H](O)[C@@H](N)[C@@H](O[C@H]2[C@H](O[C@@H]3O[C@H](CO)[C@@H](O[C@H]4O[C@@H](CN)[C@@H](O)[C@H](O)[C@H]4N)[C@H]3O)[C@@H](O)[C@H](N)C[C@@H]2N)O[C@@H]1CO | broth microdilution | MRSA isolate AG 039 | – | 16 µg/mL
CC[C@H](C)[C@H](NC(=O)[C@H](CC(C)C)NC(=O)[C@H](C)NC(=O)[C@H](CO)NC(=O)[C@H](CCCNC(=N)N)NC(=O)[C@@H](N)CO)C(=O)N[C@H](C(=O)N[C@@H](Cc1c[nH]cn1)C(=O)N[C@@H](CCC(N)=O)C(=O)N[C@@H](CCCNC(=N)N)C(=O)N[C@@H](CC(C)C)C(=O)N[C@@H](Cc1ccccc1)C(N)=O)C(C)C | broth microdilution | Mueller Hinton broth | – | > 400 µg/mL
CCCCCCCCCCCCCCCCCCCCCCSCC1OC(OC2C(N)CC(N)C(OC3OC(CN)C(O)CC3N)C2O)C(O)C(N)C1O (centres unmarked) | – | NorA | – | > 150 µg/mL
CC(=O)N[C@@H](CCCNC(=N)N)C(=O)N[C@@H](Cc1c[nH]c2ccccc12)C(=O)N[C@@H](CCCNC(=N)N)C(=O)N[C@@H](Cc1c[nH]c2ccccc12)C(=O)N[C@@H](Cc1c[nH]c2ccccc12)C(=O)N[C@@H](CCCCN)C(=O)N1CCC[C@H]1C(=O)N[C@H](C(N)=O)C(C)C | – | MSSA ATCC 29213, Mueller-Hinton broth | overnight, 37 °C | > 90.8 µM
CCCCCCCCCCCCCCCC(=O)N[C@@H](CCCCN)C(=O)N1CCC[C@H]1C(=O)N[C@H](C(N)=O)C(C)C | broth microdilution | MRSA ATCC 33591 | Mueller-Hinton broth | 11.4 µM
C/C(=N/NC(=N)N)c1nnn(-c2ccc(C#CC(C)(C)O)cc2)c1C | broth microdilution | MRSA USA300 NRS384 | – | 16 µg/mL
CCCCCNS(=O)(=O)c1ccc(-n2nnc(/C(C)=N/NC(=N)N)c2C)cc1 | microbial growth, broth dilution | MRSA USA300 | drug-resistant strain | > 64 µg/mL
CC[C@H](C)[C@H](NC(=O)[C@H](NC(=O)[C@@H](CCCNC(=N)N)NC(=O)[C@@H](N)COC(=O)[C@@H](NC(=O)[C@@H](Cc1ccccc1)NC)[C@@H](C)CC)[C@@H](C)CC)C(=O)N[C@@H](CO)C(=O)N[C@H]1C(=O)N[C@@H](C)C(=O)N[C@@H](CC(C)C)C(=O)N[C@@H]([C@@H](C)CC)C(=O)O[C@H]1C | broth microdilution | ATCC 700698, MRSA, brain heart infusion broth | 16 h, 37 °C | 0.5 to 1 µg/mL
CN(C)CCCNCCCNC(=O)[C@@H]1NC(=O)[C@@H]2Cc3ccc(cc3)Oc3cc4cc(c3O)-c3ccc5c(c[nH]c5c3)C[C@@H](NC(=O)C(N)c3ccc(O)cc3)C(=O)N[C@H](c3ccc(O)cc3)C(=O)N[C@H]4C(=O)N[C@@H](C(=O)N2C)c2ccc(cc2)Oc2cc1ccc2O (some centres unmarked) | – | ATCC 33591 MRSA, Mueller-Hinton broth | – | > 128 µg/mL
